Results of several laboratories.
Each line is one published result; not all experiments were run side by side. ± gives the spread as reported.
Organism: Staphylococcus aureus

| Compound | assay | system | conditions | MIC |
| --- | --- | --- | --- | --- |
| CN(C)c1ccc(O)c2c1C[C@H]1C[C@H]3[C@H](N(C)C)C(O)=C(C(N)=O)C(=O)[C@@]3(O)C(O)=C1C2=O |  | MRSA 5, Tet M, 50% mouse serum |  | 64 µg/mL |
| CC(=O)NC[C@H]1CN(c2ccc(N3CCOCC3)c(F)c2)C(=O)O1 | microbial growth, broth dilution | MRSA | clinical isolate | 1 µg/mL |
| COc1ccc(C=Nc2ncn[nH]2)cc1 | microbial growth, broth dilution | ATCC29213 |  | > 256 µg/mL |
| CCCCCn1sc2ccccc2c1=O |  |  | panel of 28 strains | 0.25 to 62.5 µg/mL |
| CC(=O)NC[C@H]1CN(c2ccc(N3CCOCC3)c(F)c2)C(=O)O1 |  | ATCC 29213 MSSA |  | 4 µg/mL |
| CCCCCCC/C=C/C(=O)N1C(=O)/C(=C(/C)O)C(=O)C1Cc1ccc(O)cc1 (stereo not shown) | microbial growth, broth dilution | MSSA NEWMAN |  | 50 µg/mL |
| CN[C@H](CC(C)C)C(=O)N[C@H]1C(=O)N[C@@H](CC(N)=O)C(=O)N[C@H]2C(=O)N[C@H]3C(=O)N[C@H](C(=O)N[C@H](C(=O)O)c4cc(O)cc(O)c4-c4cc3ccc4O)[C@H](O)c3ccc(c(Cl)c3)Oc3cc2cc(c3O[C@@H]2O[C@H](CO)[C@@H](O)[C@H](O)[C@H]2O[C@H]2C[C@](C)(N)[C@H](O)[C@H](C)O2)Oc2ccc(cc2Cl)[C@H]1O | broth microdilution | MRSA2, methicillin-resistant | 16 to 24 h | 2 µg/mL |
| CCc1cc(=O)c2c(OCC(O)CNC(C)C)c3ccoc3c(OC)c2o1 (stereo not shown) | microbial growth, broth dilution | ATCC25 | 19 h | > 256 µg/mL |
| CCC(CC)c1cc(CCN2CCCN(Cc3ccc(C(F)(F)F)cc3)CC2)nc(-c2ccncc2)n1 | microbial growth, broth dilution | ATCC29213 |  | 3 to 4 µg/mL |
| CCc1cc(=O)c2c(O)c3ccoc3c(OC)c2o1 | microbial growth, broth dilution | ATCC29 | 19 h | 128 µg/mL |
| CCCCCCC/C=C/C(=O)N1C(=O)/C(=C(/C)O)C(=O)C1CCC(=O)O (stereo not shown) | microbial growth, broth dilution | MSSA NEWMAN |  | > 200 µg/mL |
| COc1cc(-c2cc3cc(OC)c(OC)c(OC)c3c(C)[n+]2C)cc(-c2ccc(-c3ccccc3)cc2)c1OC.[I-] | broth microdilution | ATCC 33591 MRSA, broth with 2% NaCl | 24 h, 37 °C | 1 to 8 µg/mL |
| CCCCC(=O)N1C(=O)/C(=C(/C)O)C(=O)C1CC(C)C (stereo not shown) | microbial growth, broth dilution | MSSA NEWMAN |  | 50 µg/mL |
| CCc1cc(=O)c2c(OCC3CO3)c3ccoc3c(OC)c2o1 (stereo not shown) | microbial growth, broth dilution | ATCC25 | 19 h | > 256 µg/mL |
| CCOC(=O)c1c(N)csc1-c1cn(-c2ccccc2)nc1-c1ccc(C)cc1 | broth microdilution | clinical urinary isolate | compound gamma-irradiated 10 kGy | 0.123 ± 0.3 µg/mL |
| N#Cc1ccc(/C=C/c2nc3ccccc3c(=O)n2-c2ccccc2O)cc1 | broth microdilution | ATCC 29213 MSSA |  | 0.015 to 4 µg/mL |
| O=C(Cc1ccccc1Cl)N1CCC(c2nccs2)C1 (stereo not shown) |  | various strains incl. MRSA |  | 50 to 200 µg/mL |
| O=[N+]([O-])c1ccc(C=Nc2ncn[nH]2)cc1 | microbial growth, broth dilution | ATCC29213 |  | 64 µg/mL |
| CCCCCCC/C=C/C(=O)N1C(=O)/C(=C(\O)c2ccc(O)cc2)C(=O)C1CC(C)C (stereo not shown) | microbial growth, broth dilution | MSSA NEWMAN |  | 6.25 µg/mL |

| Compound | assay | system | conditions | MIC |
| --- | --- | --- | --- | --- |
| CN[C@H](CC(C)C)C(=O)N[C@H]1C(=O)N[C@@H](CC(N)=O)C(=O)N[C@H]2C(=O)N[C@H]3C(=O)N[C@H](C(=O)N[C@H](C(=O)O)c4cc(O)cc(O)c4-c4cc3ccc4O)[C@H](O)c3ccc(c(Cl)c3)Oc3cc2cc(c3O[C@@H]2O[C@H](CO)[C@@H](O)[C@H](O)[C@H]2O[C@H]2C[C@](C)(N)[C@H](O)[C@H](C)O2)Oc2ccc(cc2Cl)[C@H]1O | bacterial growth | ATCC 12608, LB broth | 18 h, 37 °C | 0.7 µM |
| CC1(C)S[C@@H]2[C@H](NC(=O)[C@H](N)c3ccccc3)C(=O)N2[C@H]1C(=O)O |  | methicillin-resistant |  | 183 µM |
| CCc1cc(=O)c2c(OCC(O)CN(CC)CC)c3ccoc3c(OC)c2o1 (stereo not shown) | microbial growth, broth dilution | ATCC25 | 19 h | > 256 µg/mL |
| O=C(Cc1ccccc1Cl)N1CCC(c2ccccc2)C1 (stereo not shown) |  | various strains incl. MRSA |  | 12.5 to 25 µg/mL |
| CCOc1ccc2ccccc2c1C(=O)N[C@@H]1C(=O)N2[C@@H]1SC(C)(C)[C@@H]2C(=O)O | broth microdilution | USA300 LAC | 5% human serum | 2 to 4 µM |
| CS(=O)(=O)c1ccc(C=Nc2ncn[nH]2)cc1 | microbial growth, broth dilution | ATCC29213 |  | 128 µg/mL |
| O=C(N[C@H](CO)[C@H](O)c1ccc([N+](=O)[O-])cc1)C(Cl)Cl | microbial growth, broth dilution |  |  | < 41 µg/mL |
| CCc1cc(=O)c2c(OCC(O)CNC(C)(C)C)c3ccoc3c(OC)c2o1 (stereo not shown) | microbial growth, broth dilution | NCTC4163 | 19 h | > 256 µg/mL |
| C(=Nc1ncn[nH]1)c1ccncc1 | microbial growth, broth dilution | ATCC29213 |  | 256 µg/mL |
| O=C(Cc1cccc(F)c1F)N1CCC(c2ccccc2)C1 (stereo not shown) |  | various strains incl. MRSA |  | ≥ 50 µg/mL |
| O=C(O)c1ccc(C=Nc2ncn[nH]2)cc1 | broth microdilution | MRSA2, methicillin-resistant | 16 to 24 h | > 256 µg/mL |
| COc1cc(OC)cc(-n2sc3ccccc3c2=O)c1 |  |  | panel of 28 strains | ≤ 2 µg/mL |
| CN(C)c1cc(NC(=O)CNC(C)(C)C)c(O)c2c1C[C@H]1C[C@H]3[C@H](N(C)C)C(O)=C(C(N)=O)C(=O)[C@@]3(O)C(O)=C1C2=O |  | MRSA 5, Tet M, 50% mouse serum |  | 1 µg/mL |
| CCc1cc(=O)c2c(OCC(O)CN3CCOCC3)c3ccoc3c(OC)c2o1 (stereo not shown) | microbial growth, broth dilution | NCTC4163 | 19 h | > 256 µg/mL |
| COc1cc2cc(-c3cccc(-c4ccc(C(C)(C)C)cc4)c3)[n+](C)c(C)c2cc1OC | broth microdilution | 8325-4 MSSA |  | 2.3 µM |
| Oc1ccc(Cl)cc1C=Nc1ncn[nH]1 | microbial growth, broth dilution | ATCC29213 |  | 64 µg/mL |
| CCc1cc(=O)c2c(OCC(O)CN3CCCCC3)c3ccoc3c(OC)c2o1 (stereo not shown) | microbial growth, broth dilution | NCTC4163 | 19 h | > 256 µg/mL |
| CC(=O)NC[C@H]1CN(c2ccc(N3CCOCC3)c(F)c2)C(=O)O1 | broth microdilution | USA300 LAC | 10% human serum | 8 µM |

A few entries again:
| Compound | assay | system | conditions | MIC |
| --- | --- | --- | --- | --- |
| O=C(Cc1cccc(F)c1F)N1CCC(c2ccccc2)C1 (stereo not shown) |  | various strains incl. MRSA |  | ≥ 50 µg/mL |
| O=C(Cc1ccccc1Cl)N1CCC(c2nccs2)C1 (stereo not shown) |  | various strains incl. MRSA |  | 50 to 200 µg/mL |
| CCc1cc(=O)c2c(OCC(O)CNC(C)(C)C)c3ccoc3c(OC)c2o1 (stereo not shown) | microbial growth, broth dilution | NCTC4163 | 19 h | > 256 µg/mL |
